Measurements from different studies.

Substance = O=c1oc(-c2ccccc2Br)nc2cccc(Cl)c12; tested on = Replicase polyprotein 1ab, main protease (rep, Severe acute respiratory syndrome coronavirus 2, UniProt P0DTD1); test = viral replication, Gluc reporter; test system = SARS-CoV-2; setting = 20 µM; endpoint = inhibition; result = -0.0732%
Substance = ESDDYIATNGPLKVG; tested on = human CD4 T cells; test = AIM; test system = peptide; endpoint = responding donors; result = 8%
Substance = Nc1ncnc2c([C@@H]3N[C@H](CO)[C@@H](O)[C@H]3O)c[nH]c12; tested on = Marburg virus; test = antibody staining; test system = HeLa, Musoke; setting = 0.4 µM; endpoint = antigen-positive cells; result = 10.1%
Substance = FEYVSQPFLM; test = AIM; test system = peptide, CD8+ T cells from PBMC, human donors; setting = HLA-B*40:01 restricted, unit not given; how to read = relative to: positive over tested donors; endpoint = frequency of responding donors; result = 40
Substance = CC[C@H](C)[C@H](NC(=O)[C@H](CC(C)C)NC(=O)[C@H](Cc1c[nH]c2ccccc12)NC(=O)[C@H](CCC(N)=O)NC(=O)[C@@H](NC(=O)[C@H](Cc1ccccc1)NC(=O)[C@H](C)NC(=O)[C@H](CCCCNC(=O)COCCOCCNC(=O)COCCOCCNC(=O)CC[C@H](NC(=O)CCCCCCCCCCCCCCCCCCC(=O)O)C(=O)O)NC(=O)[C@H](CCC(N)=O)NC(=O)[C@H](C)NC(=O)[C@@H](NC(=O)[C@H](CCCCN)NC(=O)[C@H](CC(=O)O)NC(=O)[C@H](CC(C)C)NC(=O)C(C)(C)NC(=O)[C@@H](NC(=O)[C@H](CO)NC(=O)[C@H](Cc1ccc(O)cc1)NC(=O)[C@H](CC(=O)O)NC(=O)[C@H](CO)NC(=O)[C@@H](NC(=O)[C@H](Cc1ccccc1)NC(=O)[C@@H](NC(=O)CNC(=O)[C@H](CCC(=O)O)NC(=O)C(C)(C)NC(=O)[C@@H](N)Cc1ccc(O)cc1)[C@@H](C)O)[C@@H](C)O)[C@@H](C)CC)[C@@H](C)CC)C(C)C)C(=O)N[C@@H](C)C(=O)NCC(=O)NCC(=O)N1CCC[C@H]1C(=O)N[C@@H](CO)C(=O)N[C@@H](CO)C(=O)NCC(=O)N[C@@H](C)C(=O)N1CCC[C@H]1C(=O)N1CCC[C@H]1C(=O)N1CCC[C@H]1C(=O)N[C@@H](CO)C(N)=O; test system = healthy subjects; setting = 0.5 mg, Nausea, multiple ascending dose; endpoint = TEAE incidence; result = 0%
